Measurements gathered from unrelated publications.
Lines come from different studies, so protocols differ. ± gives the spread as reported.

Compound	host	medium	route	dose	time	notes	concentration
CN1CCCC1CCNS(=O)(=O)c1ccc2c(c1)CN(CC1CCCCC1)CC2 (centres unmarked)	THY-Tau22 mouse	plasma	oral in diet	0.002% in diet	6 months	sampled at 8 p.m.	4.36 ng/mL
O=C(N[C@H](Cc1c[nH]c2ccccc12)C(=O)Nc1ccncc1)c1ccc(N2CCN(c3ccc(F)cc3F)CC2)cc1F	Swiss Webster mouse, female	liver	oral	50 mg/kg	8 h	20% Kolliphor vehicle	46.1 µM
CC(C)(C)c1cc(NC(=O)Nc2ccc(Oc3ccnc4[nH]c(=O)cnc34)cc2F)n(-c2ccccc2)n1	NSG mouse (female)	tumor	oral	20 mg/kg	1 h after last dose	end of therapy	7.71 µM
O=C(N[C@H](Cc1c[nH]c2ccccc12)C(=O)Nc1ccncc1)c1ccc(-c2ccc(F)c(Cl)c2)cc1F	Swiss Webster mouse, female	muscle	oral	50 mg/kg	8 h	20% HPβCD vehicle	4.18 µM
CN(C)C(=O)c1cc2cnc(Nc3ccc(-c4ccc5c(=O)cc(N6CCOCC6)oc5c4)cc3)nc2n1C1CCCC1	BALB/c mouse	spleen	oral	20 mg/kg	2 h		827 ± 664 ng/g
COc1ccc2c3c([nH]c2c1)[C@H](CC(C)C)N1C(=O)[C@H](CC(=O)NC(C)C)NC(=O)[C@@H]1C3	wild-type mouse, male	serum	oral	100 mg/kg	4 h		10.8 µM
CSc1cc(Oc2ccnc3[nH]c(=O)cnc23)ccc1NC(=O)Nc1cc(C(C)(C)C)nn1-c1ccccc1	nude mouse (female)	tumor	oral	20 mg/kg	1 h after last dose	end of therapy	6.54 µM
O=S(=O)(c1ccc(-c2ccc3nccc(Nc4ccncn4)c3c2)cc1)N1CCOCC1	female BALB/c mouse	brain	intraperitoneal	10 mg/kg	0.25 h		69.6 ng/mL

For quick reference, copied from above:
Compound	host	medium	route	dose	time	notes	concentration
CN(C)C(=O)c1cc2cnc(Nc3ccc(-c4ccc5c(=O)cc(N6CCOCC6)oc5c4)cc3)nc2n1C1CCCC1	BALB/c mouse	spleen	oral	20 mg/kg	2 h		827 ± 664 ng/g
